Measurements pooled from the literature.
Numbered parts are unrelated; each lists some results of a single study.
UniProt Q6ZN16, sequence (whole entry, looked up): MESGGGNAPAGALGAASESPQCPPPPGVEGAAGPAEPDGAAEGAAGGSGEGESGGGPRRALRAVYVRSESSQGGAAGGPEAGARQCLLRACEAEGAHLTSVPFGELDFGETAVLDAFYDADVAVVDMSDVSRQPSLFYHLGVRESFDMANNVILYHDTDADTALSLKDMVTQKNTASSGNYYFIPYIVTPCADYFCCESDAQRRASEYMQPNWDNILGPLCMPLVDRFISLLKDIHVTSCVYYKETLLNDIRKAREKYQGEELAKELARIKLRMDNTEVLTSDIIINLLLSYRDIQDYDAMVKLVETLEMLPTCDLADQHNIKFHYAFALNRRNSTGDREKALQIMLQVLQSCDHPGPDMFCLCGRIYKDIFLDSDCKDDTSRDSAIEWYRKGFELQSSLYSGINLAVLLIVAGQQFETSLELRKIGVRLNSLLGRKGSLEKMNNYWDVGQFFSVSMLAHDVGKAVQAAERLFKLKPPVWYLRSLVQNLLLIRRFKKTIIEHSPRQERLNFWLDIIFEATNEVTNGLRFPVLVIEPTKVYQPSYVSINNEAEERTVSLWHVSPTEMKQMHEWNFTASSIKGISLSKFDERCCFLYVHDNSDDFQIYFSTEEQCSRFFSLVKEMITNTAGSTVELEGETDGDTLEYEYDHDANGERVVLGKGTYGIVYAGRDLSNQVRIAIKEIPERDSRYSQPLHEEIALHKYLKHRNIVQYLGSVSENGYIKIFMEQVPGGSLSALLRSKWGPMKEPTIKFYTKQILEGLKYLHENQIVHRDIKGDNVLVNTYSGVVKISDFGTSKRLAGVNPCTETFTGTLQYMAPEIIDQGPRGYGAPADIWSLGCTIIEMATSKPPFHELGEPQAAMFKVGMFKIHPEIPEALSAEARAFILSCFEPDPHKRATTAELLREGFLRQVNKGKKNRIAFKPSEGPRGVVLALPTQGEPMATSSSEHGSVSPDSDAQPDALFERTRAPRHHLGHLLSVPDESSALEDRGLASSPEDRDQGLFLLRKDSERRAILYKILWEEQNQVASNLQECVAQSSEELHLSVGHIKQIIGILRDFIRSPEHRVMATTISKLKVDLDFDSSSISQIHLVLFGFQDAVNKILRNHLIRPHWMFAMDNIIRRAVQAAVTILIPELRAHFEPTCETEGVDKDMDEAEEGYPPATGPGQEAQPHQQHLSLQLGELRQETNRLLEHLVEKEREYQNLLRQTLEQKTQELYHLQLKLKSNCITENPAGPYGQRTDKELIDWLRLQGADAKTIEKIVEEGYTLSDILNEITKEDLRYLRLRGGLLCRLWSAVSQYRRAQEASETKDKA
UniProt O43293, sequence (whole entry, looked up): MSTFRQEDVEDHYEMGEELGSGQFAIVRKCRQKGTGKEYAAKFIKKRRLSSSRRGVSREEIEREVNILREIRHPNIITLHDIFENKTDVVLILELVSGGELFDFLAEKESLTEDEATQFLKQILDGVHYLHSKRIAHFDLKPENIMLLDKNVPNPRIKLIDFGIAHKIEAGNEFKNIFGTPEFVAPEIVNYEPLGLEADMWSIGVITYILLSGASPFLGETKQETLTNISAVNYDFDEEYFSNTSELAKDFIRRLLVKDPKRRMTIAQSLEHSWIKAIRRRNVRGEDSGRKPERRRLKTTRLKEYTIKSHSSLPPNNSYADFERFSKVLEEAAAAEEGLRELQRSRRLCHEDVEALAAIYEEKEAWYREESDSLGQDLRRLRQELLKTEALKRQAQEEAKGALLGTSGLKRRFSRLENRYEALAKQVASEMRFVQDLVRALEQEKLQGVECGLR

Set 1
Target: RNA binding protein fox-1 homolog 2, RRM domain, GST-SBP tag (RBFOX2, Homo sapiens, UniProt O43251-10, residues 100-194)
Technique: RNA Bind-n-Seq
Molecule type: RNA
Matrix: in vitro
Concentration: 365 nM
Notes: natural RNA segment, single round, ends assumed
Relative to: no-protein control
Reading: higher = stronger binding
Endpoint: RBNS enrichment (R)
Target sequence (chain): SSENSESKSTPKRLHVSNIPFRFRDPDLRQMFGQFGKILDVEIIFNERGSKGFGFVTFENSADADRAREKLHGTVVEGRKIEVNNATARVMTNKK
Strand = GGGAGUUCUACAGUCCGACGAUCUGUUGAGAGACAUAGUCUCAUUUCCCUCUCUACCUUCUAAGCUACCCUUCUUGCUAAUCCUUCUUCAGCUCUGAGGGUUGGAAUCAUAACUCACAUUCCUCAUUCCUAAGUGGAAUUCUCGGGUGCCAA; result = 0.413
Strand = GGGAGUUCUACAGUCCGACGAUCUGUCAUCUCUACUGGGCCAUAGGACCGGGCAAACCUACCUUAAAAUAGGCAGAGGAAAGUUUCAUGAGAAGUAGUGUGUUUAACAAGACAGACUUUGGUUGCUGUAUUCAUGGAAUUCUCGGGUGCCAA; result = 0.656
Strand = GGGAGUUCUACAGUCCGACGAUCAAGCCUGGUCUCAUUUGCUUCCCUGCCAGGCUCAUCGUGUGUAUACCACAUUUGUGCCCCACUGACCUGAAGGUUCCAUGUAACUGUAUACACAUGAAUACUUAAAUGCCUGGAAUUCUCGGGUGCCAA; result = 0.362
Strand = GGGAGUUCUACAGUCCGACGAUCACCCCUGAAGAGAACACUUCCUGUUGGUCUGUCUCUUCCCACCUUCCAUCUGCACACACCCCCAAGGUAAGGGUACAGCCCGGCUGGCGGCCUCCUUGGGAACGUGUAGGUGGAAUUCUCGGGUGCCAA; result = 0.289
Strand = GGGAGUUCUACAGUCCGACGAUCUCGCGGUUGUCACCCGGGCUGGAGUGCAGUGGCGUGAUCUCGGCUCACUGCAACUUCCACCUCCUGGGUUCCAGCAGUUCUCCUGCCUCAGCCUCCCAAGUAGCUGAGAUUGGAAUUCUCGGGUGCCAA; result = 0.236
Strand = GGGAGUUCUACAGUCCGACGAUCUUAUAUACAUCCAAAUAUAUAUACUUUUUCUACCCAAUUAUUCAACUUAAAAGAUUUCAAAAACGAUUUAGCCUUAUAAUGUAUUUAUUUAUUUAAUUCAUUAAUGAAAGUGGAAUUCUCGGGUGCCAA; result = 0.99
Strand = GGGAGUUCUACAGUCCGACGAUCAACAAAAACUUUUUAAUAGUCAAACUGAAUUACCUUGUUUUAUAAAUGUUAAAUUGUUUAUAUUUAAGUAAUUAGCUUAAAAAUAUAGUUUUAUGUUUUGUACAUUAAUUUGGAAUUCUCGGGUGCCAA; result = 0.694
Strand = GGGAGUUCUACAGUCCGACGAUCCUAGAGCUAGCAGUUCCCAUUCAGGCAAACAAGGGCAGUGGUUUUGUUUGUGUUUUUGGUUGUUCCUAAAGCUUGCCCUUUGAGUAUUAUCUGGAGAACCCAAGCUGUCUUGGAAUUCUCGGGUGCCAA; result = 0.404

Set 2
Target: TAR DNA-binding protein 43, full length, His tag (TARDBP, Homo sapiens, UniProt Q13148, residues 1-414)
Technique: RNA Bind-n-Seq
Molecule type: RNA
Matrix: in vitro
Concentration: 20 nM
Notes: 6-mer, flanks averaged, single round
Together with: 150 mM LiCl
Relative to: input library
Reading: higher = stronger binding
Endpoint: 6-mer enrichment (R)
Strand = AAUUCG; result = 0.879
Strand = UGAGGC; result = 1.04
Strand = CAAAGC; result = 0.795
Strand = GCGUCC; result = 0.944
Strand = UUCCGC; result = 0.898
Strand = AGGAGG; result = 1.16
Strand = GUUGCC; result = 1.08
Strand = GCCAAA; result = 0.869

Other studies, line by line
Structure (SMILES) = N#Cc1ccc(Nc2ccc3[nH]c(=O)[nH]c3c2)c(Cl)c1; target = MAP3K15 (Homo sapiens, UniProt Q6ZN16); test = cell-free assay, competition with immobilised ligand; conditions = 1 µM; endpoint = remaining binding; result = 68%
Structure (SMILES) = COc1cc2c(cc1OC)-c1[nH]nc(Nc3cccc(F)c3)c1C2; target = DAPK3 (Homo sapiens, UniProt O43293); test = enzyme activity, inhibitor; conditions = 0.5 µM; scale = relative to: control; endpoint = remaining activity; result = 100%

A few entries again (set 2):
Strand = CAAAGC; result = 0.795
